Results of several laboratories.
A part holds a random share of what one study measured. “And” joins repeats or separate records; there may be more than shown.
Chain of UniProt P35462 (whole entry, looked up): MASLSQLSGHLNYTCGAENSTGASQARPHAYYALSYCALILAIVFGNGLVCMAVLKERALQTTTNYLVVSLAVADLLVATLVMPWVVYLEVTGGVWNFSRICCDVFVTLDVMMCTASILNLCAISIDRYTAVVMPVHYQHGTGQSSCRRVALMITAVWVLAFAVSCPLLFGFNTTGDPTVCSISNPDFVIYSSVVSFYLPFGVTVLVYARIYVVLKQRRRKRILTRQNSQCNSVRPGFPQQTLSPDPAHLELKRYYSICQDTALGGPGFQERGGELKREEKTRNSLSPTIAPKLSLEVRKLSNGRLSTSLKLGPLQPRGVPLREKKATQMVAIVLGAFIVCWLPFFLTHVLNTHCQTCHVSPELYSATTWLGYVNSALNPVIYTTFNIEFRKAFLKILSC
Chain of UniProt P35348 (whole entry, looked up): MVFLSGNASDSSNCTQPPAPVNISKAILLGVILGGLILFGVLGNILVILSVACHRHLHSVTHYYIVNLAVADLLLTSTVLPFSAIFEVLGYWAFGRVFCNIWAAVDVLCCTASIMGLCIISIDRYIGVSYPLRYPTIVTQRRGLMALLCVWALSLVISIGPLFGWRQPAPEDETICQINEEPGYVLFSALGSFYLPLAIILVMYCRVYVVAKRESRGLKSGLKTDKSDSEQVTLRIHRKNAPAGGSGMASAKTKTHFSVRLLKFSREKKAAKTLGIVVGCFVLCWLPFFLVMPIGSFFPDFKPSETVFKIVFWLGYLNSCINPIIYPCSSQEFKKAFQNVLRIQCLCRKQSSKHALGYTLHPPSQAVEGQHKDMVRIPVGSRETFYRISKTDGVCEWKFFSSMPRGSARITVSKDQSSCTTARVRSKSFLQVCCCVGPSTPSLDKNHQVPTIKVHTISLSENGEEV
Chain of UniProt P28221 (whole entry, looked up): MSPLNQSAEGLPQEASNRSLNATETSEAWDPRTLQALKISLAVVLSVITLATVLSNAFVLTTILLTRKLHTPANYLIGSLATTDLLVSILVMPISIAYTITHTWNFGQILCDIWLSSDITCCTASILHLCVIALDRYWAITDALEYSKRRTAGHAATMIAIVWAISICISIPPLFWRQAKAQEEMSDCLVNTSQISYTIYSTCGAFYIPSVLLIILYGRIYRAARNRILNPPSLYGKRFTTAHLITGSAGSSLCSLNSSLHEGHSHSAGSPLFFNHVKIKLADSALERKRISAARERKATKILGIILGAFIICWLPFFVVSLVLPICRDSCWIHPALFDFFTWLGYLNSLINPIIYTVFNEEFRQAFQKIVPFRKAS
Chain of UniProt P28566 (whole entry, looked up): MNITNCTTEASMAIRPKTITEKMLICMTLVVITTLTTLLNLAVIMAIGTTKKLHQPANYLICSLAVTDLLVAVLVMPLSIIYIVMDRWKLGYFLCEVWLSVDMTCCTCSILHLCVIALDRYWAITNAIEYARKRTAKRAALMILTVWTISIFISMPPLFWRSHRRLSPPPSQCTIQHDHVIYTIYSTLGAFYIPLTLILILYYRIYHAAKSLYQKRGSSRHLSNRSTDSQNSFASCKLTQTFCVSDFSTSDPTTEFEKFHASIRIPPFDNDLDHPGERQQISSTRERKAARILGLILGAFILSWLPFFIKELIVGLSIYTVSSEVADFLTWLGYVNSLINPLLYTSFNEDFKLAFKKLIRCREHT
Chain of UniProt P18089 (whole entry, looked up): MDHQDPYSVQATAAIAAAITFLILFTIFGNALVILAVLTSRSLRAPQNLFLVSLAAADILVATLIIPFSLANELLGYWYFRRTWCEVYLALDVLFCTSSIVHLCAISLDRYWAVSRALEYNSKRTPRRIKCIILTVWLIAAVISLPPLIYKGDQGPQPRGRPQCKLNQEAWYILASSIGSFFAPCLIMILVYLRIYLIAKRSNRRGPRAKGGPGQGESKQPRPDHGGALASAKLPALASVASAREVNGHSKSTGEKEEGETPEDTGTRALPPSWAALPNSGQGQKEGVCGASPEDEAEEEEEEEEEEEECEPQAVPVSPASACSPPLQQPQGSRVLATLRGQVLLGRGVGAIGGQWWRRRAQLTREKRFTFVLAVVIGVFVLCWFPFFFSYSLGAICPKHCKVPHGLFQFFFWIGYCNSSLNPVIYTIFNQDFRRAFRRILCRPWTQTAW
Chain of UniProt P21728 (whole entry, looked up): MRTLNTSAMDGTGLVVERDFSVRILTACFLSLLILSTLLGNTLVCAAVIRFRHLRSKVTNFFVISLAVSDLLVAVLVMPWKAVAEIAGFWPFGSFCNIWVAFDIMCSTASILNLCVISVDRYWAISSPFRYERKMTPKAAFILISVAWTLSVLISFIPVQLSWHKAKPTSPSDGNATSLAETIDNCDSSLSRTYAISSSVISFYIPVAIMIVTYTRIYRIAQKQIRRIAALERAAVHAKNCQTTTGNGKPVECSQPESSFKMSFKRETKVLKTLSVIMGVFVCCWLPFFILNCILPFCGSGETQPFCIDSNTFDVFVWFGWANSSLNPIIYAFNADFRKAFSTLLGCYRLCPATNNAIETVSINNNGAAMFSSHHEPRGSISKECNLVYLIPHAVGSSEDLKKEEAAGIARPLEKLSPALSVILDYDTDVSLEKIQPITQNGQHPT
Chain of UniProt Q9Y5N1 (whole entry, looked up): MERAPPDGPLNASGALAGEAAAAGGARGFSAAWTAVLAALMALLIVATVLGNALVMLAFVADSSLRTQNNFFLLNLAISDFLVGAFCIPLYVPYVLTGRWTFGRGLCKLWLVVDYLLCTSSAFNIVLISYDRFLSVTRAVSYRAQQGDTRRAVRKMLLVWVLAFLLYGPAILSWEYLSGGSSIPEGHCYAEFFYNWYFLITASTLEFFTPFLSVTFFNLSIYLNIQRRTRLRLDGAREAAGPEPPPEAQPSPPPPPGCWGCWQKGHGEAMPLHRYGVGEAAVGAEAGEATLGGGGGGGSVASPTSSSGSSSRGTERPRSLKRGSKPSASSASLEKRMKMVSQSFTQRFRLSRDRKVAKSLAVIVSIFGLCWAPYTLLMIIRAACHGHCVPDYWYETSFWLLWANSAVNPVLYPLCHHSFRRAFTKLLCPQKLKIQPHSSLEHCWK
Chain of UniProt P13945 (whole entry, looked up): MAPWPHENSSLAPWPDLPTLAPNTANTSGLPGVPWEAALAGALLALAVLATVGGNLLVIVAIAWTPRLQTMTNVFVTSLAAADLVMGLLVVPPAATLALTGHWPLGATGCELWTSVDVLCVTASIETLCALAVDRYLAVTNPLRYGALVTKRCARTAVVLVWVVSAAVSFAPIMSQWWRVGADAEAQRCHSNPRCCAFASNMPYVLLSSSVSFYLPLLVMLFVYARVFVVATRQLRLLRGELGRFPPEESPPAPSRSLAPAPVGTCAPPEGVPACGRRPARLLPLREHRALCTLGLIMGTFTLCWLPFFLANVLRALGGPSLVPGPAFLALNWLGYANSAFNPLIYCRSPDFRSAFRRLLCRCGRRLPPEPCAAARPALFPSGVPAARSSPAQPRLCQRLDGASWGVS
Chain of UniProt P08588 (whole entry, looked up): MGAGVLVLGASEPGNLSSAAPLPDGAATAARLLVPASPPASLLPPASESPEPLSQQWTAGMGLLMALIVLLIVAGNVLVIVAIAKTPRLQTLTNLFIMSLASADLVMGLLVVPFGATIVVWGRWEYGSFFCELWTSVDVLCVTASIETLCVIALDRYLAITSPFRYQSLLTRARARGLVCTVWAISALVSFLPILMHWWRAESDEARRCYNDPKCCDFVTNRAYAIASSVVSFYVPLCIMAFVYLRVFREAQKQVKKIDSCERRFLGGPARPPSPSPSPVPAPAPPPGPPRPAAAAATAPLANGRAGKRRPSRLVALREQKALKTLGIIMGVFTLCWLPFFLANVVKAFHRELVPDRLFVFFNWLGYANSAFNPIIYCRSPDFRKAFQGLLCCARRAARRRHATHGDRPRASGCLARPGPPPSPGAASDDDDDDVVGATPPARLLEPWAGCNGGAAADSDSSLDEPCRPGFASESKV
Chain of UniProt P08173 (whole entry, looked up): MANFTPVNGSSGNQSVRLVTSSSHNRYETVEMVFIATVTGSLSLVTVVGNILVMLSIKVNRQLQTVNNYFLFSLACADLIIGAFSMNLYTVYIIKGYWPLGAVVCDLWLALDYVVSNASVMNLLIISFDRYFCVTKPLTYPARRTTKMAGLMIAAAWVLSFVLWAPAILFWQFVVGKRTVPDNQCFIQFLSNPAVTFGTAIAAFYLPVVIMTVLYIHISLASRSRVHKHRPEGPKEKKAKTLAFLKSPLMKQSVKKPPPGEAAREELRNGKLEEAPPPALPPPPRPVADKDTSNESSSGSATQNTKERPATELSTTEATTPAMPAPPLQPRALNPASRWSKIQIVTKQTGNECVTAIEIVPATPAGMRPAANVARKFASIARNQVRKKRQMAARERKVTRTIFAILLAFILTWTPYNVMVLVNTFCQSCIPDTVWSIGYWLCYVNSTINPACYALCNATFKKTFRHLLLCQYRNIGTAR

Study 1
Cell line: mouse MPNST tumor cells
Method: high-content immunofluorescence imaging
Item: nuclear SOX9
Tested at: 10 µM
Time: 12 h
Setting: mean of 2 replicates
Baseline: DMSO control
Direction: higher = more nuclear SOX9
Structure (SMILES)	nuclear SOX9 intensity
CN1CCC(Nc2ncc3ncnc(Nc4ccc(F)c(Cl)c4)c3n2)CC1	148 % of DMSO
CN[C@@H]1[C@H](O)[C@H](NC)[C@H]2O[C@@]3(O)C(=O)C[C@@H](C)O[C@H]3O[C@@H]2[C@H]1O	95.5 % of DMSO
CN1C(=O)OC(C)(C)C1=O	106 % of DMSO and 95 % of DMSO
Cc1c(O)cccc1C(=O)N[C@@H](CSc1ccccc1)[C@H](O)CN1C[C@H]2CCCC[C@H]2C[C@H]1C(=O)NC(C)(C)C	128 % of DMSO
O=C(O)c1cnccn1	88.8 % of DMSO
COc1cc(C(=O)NCc2ccc(OCCN(C)C)cc2)cc(OC)c1OC	99.9 % of DMSO and 110 % of DMSO
CCCCC1=NC2(CCCC2)C(=O)N1Cc1ccc(-c2ccccc2-c2nnn[nH]2)cc1	101 % of DMSO and 102 % of DMSO
c1ccc2c(c1)CCCC2C1=NCCN1 (stereo not drawn)	89.7 % of DMSO
Cc1[nH]c(/C=C2\C(=O)Nc3cc(-c4ccccc4)ccc32)c(C)c1CCC(=O)O	185 % of DMSO
C[C@@H]1CCN(C(=O)CC#N)C[C@@H]1N(C)c1ncnc2[nH]ccc12	99.6 % of DMSO
C=CCn1c(=O)n([C@@H]2O[C@H](CO)[C@@H](O)[C@H]2O)c2nc(N)[nH]c(=O)c21	99.5 % of DMSO
CC1CCc2c(cc(Br)c(F)c2Br)N1C=O (stereo not drawn)	100 % of DMSO
Cc1onc(-c2c(F)cccc2Cl)c1C(=O)N[C@@H]1C(=O)N2[C@@H]1SC(C)(C)[C@@H]2C(=O)O	93.5 % of DMSO
Cc1cc(-c2nc(-c3ccc(OC(F)(F)F)cc3)no2)nn1Cc1ccnc(N2CCN(C3CC3)CC2)c1	180 % of DMSO
COc1cc2c(cc1NS(=O)(=O)c1ccc(Br)cc1C)n(C)c(=O)n2C	95.3 % of DMSO and 101 % of DMSO
Cn1cccc1/C=C1\C(=O)NC(=O)c2ccccc21	114 % of DMSO

Study 2
Target: Calcium/calmodulin-dependent protein kinase type II subunit alpha (CAMK2A, Homo sapiens, UniProt Q9UQM7)
Chain of UniProt Q9UQM7 (whole entry, looked up): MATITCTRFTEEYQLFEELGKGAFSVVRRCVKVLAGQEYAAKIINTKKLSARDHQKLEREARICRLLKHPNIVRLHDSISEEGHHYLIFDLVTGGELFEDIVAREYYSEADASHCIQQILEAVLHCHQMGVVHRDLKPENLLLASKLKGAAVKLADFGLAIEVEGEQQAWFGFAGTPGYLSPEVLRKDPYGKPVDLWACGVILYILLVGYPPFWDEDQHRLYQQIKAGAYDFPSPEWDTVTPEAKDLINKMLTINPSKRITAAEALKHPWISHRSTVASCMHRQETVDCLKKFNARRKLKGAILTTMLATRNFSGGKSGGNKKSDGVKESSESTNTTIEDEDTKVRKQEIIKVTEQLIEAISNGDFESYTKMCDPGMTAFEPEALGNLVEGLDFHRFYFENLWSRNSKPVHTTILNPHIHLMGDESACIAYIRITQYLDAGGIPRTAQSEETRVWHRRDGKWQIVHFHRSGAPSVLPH
Effect on: enzyme activity
Action: inhibitor
Tested at: 10 µM
SMILES	inhibition
C[C@H](CSC(=O)c1ccccc1)C(=O)N1C[C@@H](Sc2ccccc2)C[C@H]1C(=O)O	-5%
O=C1Nc2ccccc2/C1=C1/Nc2ccccc2C1=O	9%
CC[C@]12CCCN3CCc4c(n(c5ccccc45)[C@@](O)(C(=O)OC)C1)[C@@H]32	7%
CC(=O)CC(=O)CCC(=O)O	-10%
C[C@H]1[C@H](C)CC[C@]2(C(=O)O)CC[C@]3(C)C(=CC[C@@H]4[C@@]5(C)CC[C@@H](O)C(C)(C)[C@@H]5CC[C@]43C)[C@H]12	-18%
O=C(O)CCCC[C@@H]1CCSS1	-11%
O=C1N[C@@H](Cc2c[nH]c3ccccc23)C(=O)N2CCC[C@@H]12	-14%
CC1=CC[C@H]2C[C@@H]1C2(C)C	-4%
C=C[C@@](C)(/C=C/c1ccc(O)cc1)CCC=C(C)C	-33%
Cc1ccc(C(C)C)cc1O	-4%
Oc1cc(O)cc(-c2cc3ccc(O)cc3o2)c1	-35%
CC(C)OC(=O)CNc1cccc(CN(Cc2ccc(-n3cccn3)cc2)S(=O)(=O)c2cccnc2)n1	-6%

Study 3
Compound: CC(=O)C1=C(C)N(c2cccc(C(F)(F)F)c2)C(=O)N[C@H]1c1ccc(C#N)nc1
Tested at: 10 µM
target	effect on	inhibition
HTR1E (Homo sapiens, UniProt P28566)	cell-free assay	-20.9%
DRD1 (Homo sapiens, UniProt P21728)	ligand displacement	-12.6%
HRH2 (Homo sapiens, UniProt P25021)	ligand displacement	3.4%
DRD3 (Homo sapiens, UniProt P35462)	ligand displacement	-6.43%
ADRB3 (Homo sapiens, UniProt P13945)	ligand displacement	17.2%
ADRA2B (Homo sapiens, UniProt P18089)	ligand displacement	11.8%
HRH3 (Homo sapiens, UniProt Q9Y5N1)	ligand displacement	-11.2%
ADRB1 (Homo sapiens, UniProt P08588)	ligand displacement	8.09%
ADRA1A (Homo sapiens, UniProt P35348)	ligand displacement	-5.26%
CHRM4 (Homo sapiens, UniProt P08173)	ligand displacement	2.88%
HTR1D (Homo sapiens, UniProt P28221)	cell-free assay	-16.4%

Study 4
Target: Dual specificity tyrosine-phosphorylation-regulated kinase 2 (DYRK2, Homo sapiens, UniProt Q92630)
Effect on: enzyme activity
Action: inhibitor
Tested at: 0.5 µM
Baseline: control
Construct (Q92630 1-601): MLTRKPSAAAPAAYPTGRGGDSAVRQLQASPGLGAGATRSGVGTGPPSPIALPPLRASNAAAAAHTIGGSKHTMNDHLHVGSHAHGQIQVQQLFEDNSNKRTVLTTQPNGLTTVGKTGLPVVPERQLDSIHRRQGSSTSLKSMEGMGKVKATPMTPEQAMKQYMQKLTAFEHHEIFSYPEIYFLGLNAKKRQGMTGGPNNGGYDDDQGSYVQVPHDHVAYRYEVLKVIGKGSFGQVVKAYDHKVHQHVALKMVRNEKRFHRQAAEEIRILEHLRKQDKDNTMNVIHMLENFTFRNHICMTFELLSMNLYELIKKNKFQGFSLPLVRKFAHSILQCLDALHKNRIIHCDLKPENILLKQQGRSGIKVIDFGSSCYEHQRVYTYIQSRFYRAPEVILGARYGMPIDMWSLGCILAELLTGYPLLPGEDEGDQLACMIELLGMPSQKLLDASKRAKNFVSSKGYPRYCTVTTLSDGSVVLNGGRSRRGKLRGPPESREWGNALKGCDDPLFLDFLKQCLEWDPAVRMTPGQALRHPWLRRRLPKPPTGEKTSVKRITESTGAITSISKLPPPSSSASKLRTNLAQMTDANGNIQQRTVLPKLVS
SMILES	remaining activity [%]
O=C1c2ccccc2-c2nc3nnnn3nc21	113
COc1cc2c(Nc3ccc(Br)cc3F)ncnc2cc1OCC1CCN(C)CC1	97.2
N#CC(c1ccnc(NCCc2cccnc2)n1)c1nc2ccccc2s1 (stereo not drawn)	22.2
COc1cc2c(N3CCN(C(=O)Nc4ccc(OC(C)C)cc4)CC3)ncnc2cc1OCCCN1CCCCC1	107
CC(C)N(CCC(=O)c1ccc2ccccc2c1)Cc1ccccc1	118
FC(F)(F)c1ccc(/C=C/c2nc(COc3ccc(CCCCn4ccnn4)cc3)co2)cc1	110
O=C(c1ccccc1)c1ccc(N2CCOCC2)cc1O	96.8
CC(C)(C)c1nc2c3cc[nH]c(=O)c3c3cc(F)ccc3c2[nH]1	62.5
O=C1NC(=O)/C(=C/c2ccc3c(c2)OC(F)(F)O3)S1	98.6
O=Nc1c(-c2c(O)[nH]c3ccccc23)[nH]c2ccccc12	79.1
N#C/C(=C(/N)SC1C=CC=CC1)c1cccc(C(O)c2ccncc2)c1 (stereo not drawn)	96.7
C[C@@H](N)[C@H]1CC[C@H](C(=O)Nc2ccncc2)CC1	95.2
